Measured values collected from several papers.
Each line is one published result; not all experiments were run side by side. Numbers after ± are the reported error.
Chain of UniProt Q9UHI6 (whole entry, looked up): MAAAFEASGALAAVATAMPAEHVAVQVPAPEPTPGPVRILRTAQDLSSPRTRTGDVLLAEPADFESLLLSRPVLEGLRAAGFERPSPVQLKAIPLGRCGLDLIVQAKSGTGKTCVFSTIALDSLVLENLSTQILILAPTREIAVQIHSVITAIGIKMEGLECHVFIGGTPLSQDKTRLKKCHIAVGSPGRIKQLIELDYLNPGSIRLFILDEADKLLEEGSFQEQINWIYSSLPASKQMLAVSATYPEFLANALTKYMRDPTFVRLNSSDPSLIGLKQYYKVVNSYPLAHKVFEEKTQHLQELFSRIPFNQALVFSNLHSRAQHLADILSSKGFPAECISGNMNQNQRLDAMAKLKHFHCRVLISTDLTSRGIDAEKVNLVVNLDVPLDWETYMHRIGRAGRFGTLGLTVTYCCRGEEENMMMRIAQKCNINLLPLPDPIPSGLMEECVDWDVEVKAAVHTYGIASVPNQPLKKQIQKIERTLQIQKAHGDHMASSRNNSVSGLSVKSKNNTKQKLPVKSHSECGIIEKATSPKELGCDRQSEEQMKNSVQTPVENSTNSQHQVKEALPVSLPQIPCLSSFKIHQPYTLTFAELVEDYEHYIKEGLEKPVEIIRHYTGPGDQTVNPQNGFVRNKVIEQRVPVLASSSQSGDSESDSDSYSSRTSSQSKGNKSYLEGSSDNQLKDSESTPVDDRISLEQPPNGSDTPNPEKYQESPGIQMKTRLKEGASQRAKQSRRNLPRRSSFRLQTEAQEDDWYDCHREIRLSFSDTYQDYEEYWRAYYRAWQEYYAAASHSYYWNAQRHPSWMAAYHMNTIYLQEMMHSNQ

SMILES | tested on | assay | system | conditions | how to read | measurement | result
Nc1ncnc2c1ncn2[C@@H]1O[C@@H]2COP(=O)(O)O[C@H]3[C@@H](O)[C@H](n4cnc5c(=O)[nH]cnc54)O[C@@H]3COP(=O)(O)O[C@H]2[C@H]1O | Zika virus | downregulated Reactome pathway, RNA sequencing, measured: Nervous system development (R-HSA-9675108) | HFF-1 |  | reference: ZIKV-infected untreated | fold enrichment | 2.48
COc1cc(CCC[P+](c2ccccc2)(c2ccccc2)c2ccccc2)c(OC)c2c1OCO2.[I-] | OVCAR-4 | SRB |  |  |  | TGI | -4.79 log M
CCOc1ccccc1-n1c(C(C)N2CCN(C(=O)COc3ccc(Cl)cc3)CC2)nc2ccccc2c1=O (stereo not drawn) | human coronavirus OC43 | virus-induced cell killing | MRC-5 | screen |  | maximum inhibition | 15.5%
CCNCCc1c[nH]c2cccc(O)c12.CCNCCc1c[nH]c2cccc(O)c12.O=C(O)CCC(=O)O |  |  | C57BL/6J mice | subcutaneous, 1 mg/kg | reference: pre-session | body temperature change | -0.5 ± 0.1 °C
CCCCC1(CCCC)CN(c2ccccc2)c2cc(SC)c(OCC(=O)N[C@@H](C(=O)NCC(=O)O)c3ccccc3)cc2S(=O)(=O)C1 |  | measured: HDL cholesterol | human, serum | 20 mg once daily, day 8 |  | serum HDL-C | 52.4 mg/dL
COc1cc2c(Oc3ccc4[nH]c(C)cc4c3F)ccnc2cc1OCC1(N)CC1 |  |  | paediatric refractory sarcoma patients | 10 mg |  | gingival bleeding incidence | 25%
CC[C@H](C)[C@@H]1NC(=O)[C@@H]2CCCN2C(=O)[C@H](CC(C)C)NC(=O)[C@H](CC(C)C)NC(=O)CNC(=O)[C@@H](NC(=O)[C@@H](NC(=O)[C@H](CC(=O)O)NC(=O)CNC(=O)[C@@H](NC(=O)[C@H](C)NC(=O)CNC(=O)[C@H](CCCCN)NC(=O)[C@H](CC(C)C)NC(=O)[C@H](CC(C)C)NC(=O)[C@H](CCCCN)NC(=O)CNC(=O)[C@@H](NC(=O)[C@@H](N)CC(C)C)C(C)C)C(C)C)C(C)C)CSSC[C@@H](C(=O)O)NC1=O |  | RNA-seq, measured: S100a11 mRNA | mouse traumatic brain injury, frontal cortex and hippocampus | dose not given | reference: TBI plus compound vs TBI | log2 fold change | -2.24
C[C@]12CC[C@H]3[C@@H](CC=C4CC(O)CC[C@@]43CO)[C@@H]1CCC2O (stereo partly drawn) |  |  | GAN diet MASH rats | ip, 20 mg/kg, two weeks | reference: GAN vehicle | plasma ALT level | decreased
COc1c(CCC[P+](c2ccccc2)(c2ccccc2)c2ccccc2)cc2c(c1OC)OCO2.[I-] | OVCAR-4 | SRB |  |  |  | LC50 | > -4 log M
CC[C@H](C)[C@H](NC(=O)[C@H](Cc1ccccc1)NC(=O)[C@H](CCC(=O)O)NC(=O)[C@H](CCCNC(=N)N)NC(=O)[C@H](C)NC(=O)[C@H](C)NC(=O)[C@H](CCC(N)=O)NC(=O)[C@H](CCC(=O)O)NC(=O)[C@H](CCC(=O)O)NC(=O)[C@H](CC(C)C)NC(=O)[C@H](Cc1ccc(O)cc1)NC(=O)[C@H](CO)NC(=O)[C@H](CO)NC(=O)[C@@H](NC(=O)[C@H](CC(=O)O)NC(=O)[C@H](CO)NC(=O)[C@@H](NC(=O)[C@H](Cc1ccccc1)NC(=O)[C@@H](NC(=O)CNC(=O)[C@H](CCC(=O)O)NC(=O)[C@H](C)NC(=O)CCc1c[nH]cn1)[C@@H](C)O)[C@@H](C)O)C(C)C)C(=O)N[C@@H](C)C(=O)N[C@@H](Cc1c[nH]c2ccccc12)C(=O)N[C@@H](CC(C)C)C(=O)N[C@H](C(=O)N[C@@H](CCCNC(=N)N)C(=O)NCC(=O)N[C@@H](CCCNC(=N)N)C(=O)N[C@@H](CCCCNC(=O)COCCOCCNC(=O)COCCOCCNC(=O)CC[C@H](NC(=O)CCCCCCCCCCCCCCCCC(=O)O)C(=O)O)C(=O)NCC(=O)NCC(=O)N[C@@H](CO)C(=O)N[C@@H](CCCCNc1c(NCCCCCN(O)C(=O)CCC(=O)NCCCCCN(O)C(=O)CCC(=O)NCCCCCN(O)C(C)=O)c(=O)c1=O)C(=O)O)C(C)C [zirconium-89 labelled] |  |  | rat, intestine | iv, 3 nmol/kg, 168 h, ex vivo |  | tissue uptake | 0.12 %ID/g
CC[C@]1(O)C[C@@H]2CN(CCc3c([nH]c4ccccc34)[C@@](C(=O)OC)(c3cc4c(cc3OC)N(C)[C@H]3[C@@](O)(C(=O)OC)[C@H](OC(C)=O)[C@]5(CC)C=CCN6CC[C@]43[C@@H]65)C2)C1 | human coronavirus OC43 | virus-induced cell killing | MRC-5 | screen |  | maximum inhibition | 3.11%
C[C@H]1CN(c2n[nH]c3nc(N[C@H]4CC[C@H](NS(=O)(=O)CCC(F)(F)F)CC4)ncc23)CCO1 | DDX20 (Homo sapiens, UniProt Q9UHI6) | inhibitor, Kinobeads competition profiling |  | 0.032 µM | reference: vehicle | relative abundance | 1.06
NCCCNCCSP(=O)(O)O | human coronavirus OC43 | virus-induced cell killing | MRC-5 | screen |  | maximum inhibition | 9.01%
CC(=O)c1c(C)c2cnc(Nc3ccc(C4CCN(CCS(C)(=O)=O)CC4)cn3)nc2n(C2CCCC2)c1=O |  |  | HR+/HER2- advanced breast cancer patients | oral, dose not given, grade 3/4,, sample A patients |  | patients with ALT increased | 1.2%
COc1cc(Nc2ncc(F)c(Nc3ccc4c(n3)NC(=O)C(C)(C)O4)n2)cc(OC)c1OC | DRD5 (Homo sapiens, UniProt P21918) |  |  |  |  | IC50 | > 10 µM
